# Experimental data from different studies.
# Each line is one published result; not all experiments were run side by side. Several values in a cell are separate wells, animals, samples, runs or records. Numbers after ± are the reported error.
# Chain of UniProt Q99623 (whole entry, looked up): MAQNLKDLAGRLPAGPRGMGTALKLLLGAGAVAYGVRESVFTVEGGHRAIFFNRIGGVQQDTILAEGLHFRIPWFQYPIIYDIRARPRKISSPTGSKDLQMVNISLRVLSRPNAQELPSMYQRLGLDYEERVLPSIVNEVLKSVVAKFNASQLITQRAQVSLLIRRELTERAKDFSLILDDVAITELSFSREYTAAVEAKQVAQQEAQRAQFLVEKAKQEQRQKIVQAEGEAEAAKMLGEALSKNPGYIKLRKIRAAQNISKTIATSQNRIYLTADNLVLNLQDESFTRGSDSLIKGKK
# Chain of UniProt P29144 (whole entry, looked up): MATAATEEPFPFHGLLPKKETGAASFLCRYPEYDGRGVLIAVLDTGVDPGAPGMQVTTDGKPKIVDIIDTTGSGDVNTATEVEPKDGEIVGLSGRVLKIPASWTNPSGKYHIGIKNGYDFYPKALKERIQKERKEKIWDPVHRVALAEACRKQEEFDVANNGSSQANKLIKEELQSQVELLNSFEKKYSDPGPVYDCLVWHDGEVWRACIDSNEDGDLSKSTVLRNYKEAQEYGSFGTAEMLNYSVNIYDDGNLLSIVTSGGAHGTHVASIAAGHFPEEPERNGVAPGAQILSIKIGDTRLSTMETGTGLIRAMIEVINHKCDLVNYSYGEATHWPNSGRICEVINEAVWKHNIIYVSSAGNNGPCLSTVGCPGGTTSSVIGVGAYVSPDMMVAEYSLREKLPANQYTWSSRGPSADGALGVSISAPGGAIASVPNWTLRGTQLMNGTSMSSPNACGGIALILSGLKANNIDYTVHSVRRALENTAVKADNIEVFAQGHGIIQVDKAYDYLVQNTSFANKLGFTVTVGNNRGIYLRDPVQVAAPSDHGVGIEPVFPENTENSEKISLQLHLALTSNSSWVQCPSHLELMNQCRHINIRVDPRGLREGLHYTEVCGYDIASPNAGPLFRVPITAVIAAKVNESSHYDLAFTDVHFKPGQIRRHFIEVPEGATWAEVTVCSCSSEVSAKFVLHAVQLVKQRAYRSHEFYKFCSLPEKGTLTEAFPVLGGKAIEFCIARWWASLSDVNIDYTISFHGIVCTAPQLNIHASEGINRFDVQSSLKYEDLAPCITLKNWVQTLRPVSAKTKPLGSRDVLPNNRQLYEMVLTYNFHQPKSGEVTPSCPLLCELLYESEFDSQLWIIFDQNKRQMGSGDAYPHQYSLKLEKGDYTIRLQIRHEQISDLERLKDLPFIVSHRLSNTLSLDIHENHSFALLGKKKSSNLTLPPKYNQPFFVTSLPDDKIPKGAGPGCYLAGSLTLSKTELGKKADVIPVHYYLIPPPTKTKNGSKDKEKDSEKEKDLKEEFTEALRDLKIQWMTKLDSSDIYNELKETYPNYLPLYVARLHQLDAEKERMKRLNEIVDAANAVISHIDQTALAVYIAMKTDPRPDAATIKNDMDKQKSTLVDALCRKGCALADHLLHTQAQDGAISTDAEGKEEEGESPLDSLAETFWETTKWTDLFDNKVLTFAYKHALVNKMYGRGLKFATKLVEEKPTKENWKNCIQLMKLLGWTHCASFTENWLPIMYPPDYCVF
SMILES,tested on,test,system,setting,scale,measurement,result
CC(C)n1c(C2CCNCC2)nc2c([N+](=O)[O-])c(Br)c(Br)cc21,,measured: Odynophagia,AML patients,125 mg,,adverse events causing interruption,2%
Cn1ncc(-c2nc(N[C@H]3CC[C@H](N)CC3)ncc2Cl)c1CC1CC1,,HPLC-MS/MS,"patients, plasma","oral, 21 mg, day 1",,AUC,2140 ng·h/mL
CC[C@H](C)[C@@H]1NC(=O)[C@@H]2CCCN2C(=O)[C@H](CC(C)C)NC(=O)[C@H](CC(C)C)NC(=O)CNC(=O)[C@@H](NC(=O)[C@@H](NC(=O)[C@H](CC(=O)O)NC(=O)CNC(=O)[C@@H](NC(=O)[C@H](C)NC(=O)CNC(=O)[C@H](CCCCN)NC(=O)[C@H](CC(C)C)NC(=O)[C@H](CC(C)C)NC(=O)[C@H](CCCCN)NC(=O)CNC(=O)[C@@H](NC(=O)[C@@H](N)CC(C)C)C(C)C)C(C)C)C(C)C)CSSC[C@@H](C(=O)O)NC1=O,,"RNA-seq, measured: Csrnp1","mouse, traumatic brain injury model, frontal cortex and hippocampus",dose not given,relative to: TBI alone,log2 fold change,-1.98
O=C(Nc1ccccc1)C1CCN(C(=O)Oc2cccnc2)CC1,,,healthy women,"oral, 100 mg, 9 days",,adverse event Nausea,23.1%
CC(C)C[C@@H]1NC(=O)[C@H](CC(C)C)NC(=O)[C@H](Cc2c[nH]c3ccccc23)NC(=O)[C@H](CO)NC(=O)[C@H](Cc2c[nH]c3ccccc23)NC(=O)[C@@H]2CCCN2C(=O)[C@H](CC(C)C)NC(=O)[C@H](Cc2c[nH]cn2)NC(=O)[C@@H]2CCCN2C(=O)[C@H](CC(N)=O)NC(=O)[C@H](C)NC(=O)[C@H](Cc2ccc(O)cc2)NC(=O)[C@H](CS)NC(=O)[C@H](CCCCNC(=O)CN2CCN(CC(=O)O)CCN(CC(=O)O)CCN(CC(=O)O)CC2)NC1=O [lutetium-177 labelled],,,"BALB/c mice female 4T1 tumour, 4T1 tumour","intravenous, 3.7 MBq, 4 h, unblocked",,tumour uptake,6.58 ± 0.98 %ID
C[C@H]1COCCN1c1nc(NCc2cccnc2C(F)(F)F)c2cccnc2n1,,,BALB/c mice,"intravenous, 5 mg/kg",,Vss,0.317 L/kg
C[C@@H](O)[C@@H](CO)NC(=O)[C@@H](CCCNC(=N)N)NC(=O)[C@@H]1CCCN1C(=O)[C@@H]1CSSC[C@H](NC(=O)[C@H](Cc2ccccc2)NC(=O)CN2CCN(CC(=O)O)CCN(CC(=O)O)CCN(CC(=O)O)CC2)C(=O)N[C@@H](Cc2ccc(O)cc2)C(=O)N[C@@H](Cc2ccccc2)C(=O)N[C@@H](CCC(N)=O)C(=O)N[C@@H](CC(N)=O)C(=O)N1 [gallium-68 labelled],,,"Wistar rat, healthy, sublingual gland","intravenous, 8 MBq, 120 min, mean",,tissue uptake,0.2 %ID/g
CC[C@H](C)[C@H](NC(=O)[C@H](Cc1ccccc1)NC(=O)[C@H](CCC(=O)O)NC(=O)[C@H](CCCNC(=N)N)NC(=O)[C@H](C)NC(=O)[C@H](C)NC(=O)[C@H](CCC(N)=O)NC(=O)[C@H](CCC(=O)O)NC(=O)[C@H](CCC(=O)O)NC(=O)[C@H](CC(C)C)NC(=O)[C@H](Cc1ccc(O)cc1)NC(=O)[C@H](CO)NC(=O)[C@H](CO)NC(=O)[C@@H](NC(=O)[C@H](CC(=O)O)NC(=O)[C@H](CO)NC(=O)[C@@H](NC(=O)[C@H](Cc1ccccc1)NC(=O)[C@@H](NC(=O)CNC(=O)[C@H](CCC(=O)O)NC(=O)[C@H](C)NC(=O)CCc1c[nH]cn1)[C@@H](C)O)[C@@H](C)O)C(C)C)C(=O)N[C@@H](C)C(=O)N[C@@H](Cc1c[nH]c2ccccc12)C(=O)N[C@@H](CC(C)C)C(=O)N[C@H](C(=O)N[C@@H](CCCNC(=N)N)C(=O)NCC(=O)N[C@@H](CCCNC(=N)N)C(=O)N[C@@H](CCCCNC(=O)COCCOCCNC(=O)COCCOCCNC(=O)CC[C@H](NC(=O)CCCCCCCCCCCCCCCCC(=O)O)C(=O)O)C(=O)NCC(=O)NCC(=O)N[C@@H](CO)C(=O)N[C@@H](CCCCNc1c(NCCCCCN(O)C(=O)CCC(=O)NCCCCCN(O)C(=O)CCC(=O)NCCCCCN(O)C(C)=O)c(=O)c1=O)C(=O)O)C(C)C [zirconium-89 labelled],,,"rat, brain","iv, 3 nmol/kg, 4 h, ex vivo",,tissue uptake,0.05 %ID/g
CC(C)(O)c1cc(Nc2cc(Oc3cn(C4CC4)nc3C3CCOCC3)ccn2)ccn1,,Thrombocytopenia,"advanced cancer patients, dose escalation","oral, dose not given, 3 weeks on/1 off, all causality grade ≥3",,treatment-emergent adverse events,0%
O=C(c1ccc(Cl)cc1)N1CCN2C(=O)N(OC(=O)N3CCOc4ccccc43)C(=O)C2C1 (stereo not drawn),"Tripeptidyl-peptidase 2 (Homo sapiens, UniProt P29144)","enzyme activity, inhibitor, MS-based ABPP",SW-620 in situ,"10 µM, 2 h, 37 °C","relative to: compound over DMSO, lower = stronger inhibition",median ratio,1
[O-][S+]1CCc2nc(N3CCC(c4ncc(Cl)cn4)CC3)nc(NC3(CO)CCC3)c21 (stereo not drawn),,measured: Constipation,healthy male humans,"multiple doses, all groups",,adverse event incidence,0%
CC(C)[C@@H]1NC(=O)CNC(=O)[C@H](CC(N)=O)NC(=O)[C@H](CCCNC(=N)N)NC(=O)[C@H](Cc2ccc(O)cc2)NC(=O)[C@H](C(C)C)NC(=O)[C@@H](NC(=O)[C@@H](NC(=O)[C@H](CC(N)=O)NC(=O)[C@H](Cc2c[nH]c3ccccc23)NC(=O)[C@H](C)NC(=O)[C@H](Cc2ccccc2)NC(=O)CN)C(C)C)CSSC[C@@H](C(=O)N[C@@H](Cc2cnc[nH]2)C(=O)N[C@@H](CCCNC(=N)N)C(=O)N[C@@H](CCCNC(=N)N)C(=O)N[C@@H](C)C(=O)N[C@@H](CC(N)=O)C(N)=O)NC(=O)[C@H](C(C)C)NC(=O)[C@H](CCCNC(=N)N)NC1=O,,HPLC,mouse mammary gland homogenate,"2560 µM, 10.00 h, 37 °C, 50 mg/mL tissue",,remaining peptide,39.7% and 33.4% and 45.1%
Cn1cncc1-c1c(F)cncc1NC(=O)c1c(N)nn2cc(F)cnc12,,,human patients,"oral, 180 mg once daily, 2 weeks on 1 week off",,patients grade ≥3 Hyperkalemia,0%
O=C1c2c(O)c(=O)ccn2N([C@@H]2c3ccccc3SCc3c2ccc(F)c3F)[C@@H]2COCCN12,,,BALB/c mouse,"subcutaneous, 2 mg/kg q12h",,Cmax,113 ng/mL
Nc1nc2cc(-c3ccc4ncc(C(=O)N5CCOCC5)n4c3)ccc2o1,,,advanced solid tumour patients,dose not given,relative to: patients,serious AEs,42%
COc1cc2c(Oc3ccc4[nH]c(C)cc4c3F)ccnc2cc1OCC1(N)CC1,,,paediatric recurrent refractory sarcoma,12 mg,,grade 3 hand-foot syndrome,0%
C[C@H]1CN(c2n[nH]c3nc(N[C@H]4CC[C@H](NS(=O)(=O)CCC(F)(F)F)CC4)ncc23)CCO1,"Prohibitin-2 (PHB2, Homo sapiens, UniProt Q99623)","inhibitor, Kinobeads competition profiling",,0.16 µM,relative to: vehicle,relative abundance,0.96
C[C@]1(CO)Cc2ncn(-c3ccc(C#N)c(Cl)c3)c2C(=O)O1,,,human,"all doses, European multiple ascending dose",,any TEAE,40%
N[C@@H]1c2ccccc2OC12CCN(c1cnc3c(N4CCCc5ncccc54)n[nH]c3n1)CC2,,,advanced metastatic solid tumour patients,"oral, 100 mg once daily, cycle 1, 21 days",,dose-limiting toxicity,0%
CO[C@H]1C[C@@H]2CC[C@@H](C)[C@@](O)(O2)C(=O)C(=O)N2CCCC[C@H]2C(=O)O[C@H]([C@H](C)C[C@@H]2CC[C@@H](OC(=O)NCCOCCOCCOCCOCCOCCOCCOCCOCCC(=O)N3CCc4cc(Cn5nc(-c6ccc7oc(N)nc7c6)c6c(N)ncnc65)ccc4C3)[C@H](OC)C2)C[C@@H](O)[C@H](C)/C=C(\C)[C@@H](O)[C@@H](OC)C(=O)[C@H](C)C[C@H](C)/C=C/C=C/C=C/1C,,measured: treatment-emergent AEs,patients with advanced solid tumours,"intravenous, dose not given, any grade, all doses",,patients with AE,0%
CCN1CCN(Cc2ccc(Nc3ncc(F)c(-c4cc(F)c5nc6n(c5c4)[C@H](C)CCC6)n3)nc2)CC1,,,patients with advanced solid tumours,"dose not given, phase Ia monotherapy",,QT prolongation incidence,12.5%
